# Measured values of several laboratories.
# Lines come from different studies, so protocols differ.
# Target: Mitogen-activated protein kinase 10 (MAPK10, Homo sapiens, UniProt P53779)
# Sequence of UniProt P53779 (whole entry, looked up): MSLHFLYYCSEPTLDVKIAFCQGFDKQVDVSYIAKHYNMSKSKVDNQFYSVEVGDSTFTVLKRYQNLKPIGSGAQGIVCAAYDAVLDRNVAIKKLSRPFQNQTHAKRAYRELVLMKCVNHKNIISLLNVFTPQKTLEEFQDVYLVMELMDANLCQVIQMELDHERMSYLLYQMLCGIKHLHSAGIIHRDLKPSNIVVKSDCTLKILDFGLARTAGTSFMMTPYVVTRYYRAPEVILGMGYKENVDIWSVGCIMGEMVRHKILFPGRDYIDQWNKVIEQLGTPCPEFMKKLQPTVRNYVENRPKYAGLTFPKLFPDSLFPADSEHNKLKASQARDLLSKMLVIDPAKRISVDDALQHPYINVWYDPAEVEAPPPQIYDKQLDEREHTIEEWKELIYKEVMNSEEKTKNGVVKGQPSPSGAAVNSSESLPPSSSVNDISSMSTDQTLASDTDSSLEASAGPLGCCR
Compound,assay,setting,scale,endpoint,value
COc1cc(Nc2nccc(-c3cnn4nc(OC)ccc34)n2)cc(C(F)(F)F)c1,"binding, competition with immobilised ligand",1 µM,,remaining binding,94%
CNC1C[S+]2CC[S+]3CC[S+](C1)[Ru-4]321([N]=C=S)[n]2c3ccc(OC)cc3c3c4c(c5cc(F)c[n+]1c5c32)C(=O)NC4=O (stereo not drawn),KinomeScan,0.1 µM,baseline: untreated,remaining binding,100%
CC1CCN(c2ccc(-c3n[nH]c(=O)c4ncccc34)cc2)CC1,"cell-free assay, competition with immobilised ligand",10 µM,,remaining binding,34%
C=CC(=O)Nc1cccc(-c2cnc3[nH]cc(C(=O)NC(C)(C)C)c3n2)c1,"enzyme activity, inhibitor",0.1 µM,,inhibition,0%
Cc1ccc(-c2c(/C=C(\C#N)C(=O)NC(C)C)n(CCCO)c3ncnc(N)c23)cc1,"cell-free assay, competition with immobilised ligand",1 µM,,remaining binding,100%
CN1CCN(Cc2ccc(NC(=O)c3cccc(C#Cc4cnc(N)c5ncccc45)c3)cc2C(F)(F)F)CC1,"cell-free assay, competition with immobilised ligand",50 nM,,remaining binding,60%
CC(=O)N1c2ccc(-c3ccc(CNC(=O)c4cn5cc(-c6cnc(N)nc6)nc(N6CCOCC6)c5n4)cc3)cc2CC[C@@H]1C,KINOMEscan,10 µM,,remaining binding,57%
CNC(=O)C1CCN(c2cc(C)c(F)cc2NC(=O)c2ccc(-c3cc(O)ccc3C)c(C)c2)CC1,"binding, competition with immobilised ligand",1 µM,,remaining binding,81%
O=C(Cc1ccc(OCc2ccccc2)cc1)NC1(C(=O)O)CCN(C(=O)c2ccc(-c3cccc(Cl)c3)cc2)CC1,"enzyme activity, inhibitor",10 µM,,activity vs control,128%
COc1ccc(NC(=O)Nc2ccc3c(c2)C(=O)N(C(C)CO)CC(C)C(CN(C)Cc2ccc4c(c2)OCO4)O3)cc1 (stereo not drawn),"kinase activity, KinaseProfiler","0.03 µM, species human",baseline: control,remaining activity,90%
C=C1CCCCCCCCCC(CO)C1=O (stereo not drawn),"cell-free assay, competition with immobilised ligand",10 µM,,remaining binding,100%
NC(=O)[C@@H](O)C[C@H]1CCc2sc3ncnc(O[C@H]4CC[C@H](N5CCOCC5)CC4)c3c21,"enzyme activity, inhibitor",10 µM,,inhibition,-1%
Cc1cnc2nc1Nc1cccc(c1)COC/C=C/COCc1cc(ccc1OCCN1CCOCC1)N2,,"concentration not given, kinase construct JNK3",baseline: control,binding,58%
CN1CC[C@@H](COc2cnc(C#N)cc2-c2ccn3nc(NC(=O)C4CC4)cc3c2)C1,"enzyme activity, inhibitor",1 µM,,inhibition,-1%
Cc1cccc(O[C@H]2CCC[C@@H](C(C)CNCc3ccncc3)C2)c1 (relative stereo),"kinase activity, kinome panel screening",10 µM,,inhibition,-7%
CCN1CCN(Cc2ccc(C(=O)Nc3ccc(C)c(NCc4cnc5[nH]ccc5c4OC)c3)cc2C(F)(F)F)CC1,"binding, competition with immobilised ligand",1 µM,,remaining binding,77%
CCn1cc(C(=O)O)c(=O)c2c(N)c(F)c(NC3CCCCC3)cc21,kinase activity,"0.1 µM, with: ATP at Km",,inhibition,5.4%
COc1c(OCCCN2CCOCC2)ccc2c1N=C(NC(=O)c1cnc(N)nc1)N1CCN=C21,"kinase activity, inhibitor",1 µM,baseline: untreated control,remaining activity,85%
Cc1cccc(C2(C(=O)Nc3c[nH]nc3-c3ccccc3)CC2)c1,"cell-free assay, competition with immobilised ligand",10 µM,,remaining binding,34%
CC(C)=CC1OC(C)(C)C2C=C3C(=O)C(Cl)=CC(O)C3C3C(O)C4OC4C(=O)C132 (stereo not drawn),"cell-free assay, competition with immobilised ligand",10 µM,,remaining binding,84%
Cc1[nH]nc2c1N=C(c1ccccc1Cl)c1cnc(N3CCOCC3)cc1N2,"enzyme activity, inhibitor",0.5 µM,,inhibition,12.1%
